# Measurements of several laboratories.
# Protocols differ between the studies behind these lines. “And” joins repeats or separate records; there may be more than shown. ± marks the error that the study gave.
Compound,target or system,assay,test system,setting,scale,endpoint,result
CC(C)C[C@@H](NC(=O)[C@H](NC(=O)[C@@H](CCCCN)NC(=O)[C@@H](CCCCN)NC(=O)[C@@H](CC(C)C)NC(=O)[C@@H](Cc1c[nH]c2ccccc12)NC(=O)[C@@H](CCCCN)NC(=O)[C@@H](CC(C)C)NC(=O)[C@@H](CC(C)C)NC(=O)[C@@H](CCCCN)NC(=O)[C@@H](CCCCN)NC(=O)[C@H](N)C(C)C)C(C)C)C(N)=O,sheep red blood cells,10% haemolysis,,"1 h, 37 °C",,minimum haemolytic concentration,102 µM
CNC(=O)C[C@H](Cc1ccncc1)NC(=O)[C@@H](Cc1cccc(Br)c1)NC(=O)[C@@H](N)Cc1ccsc1,Huh-7-ACE2,CellTiter-Glo,,"0.00305 µM, 48 h, unit not given",baseline: DMSO,viability,0.96 and 0.873 and 0.965
CC(=O)c1c(O)c(C)c(O)c2c1OC1=CC(=O)C(=C(C)NCCNc3ccnc4cc(Cl)ccc34)C(=O)C12C (stereo not drawn),L6 rat skeletal myoblasts,"cytotoxicity, Alamar Blue",,,,IC50,8.29 µM
CC[C@H](C)[C@H](NC(=O)[C@H](Cc1c[nH]c2ccccc12)NC(=O)[C@H](CCCCN)NC(=O)[C@H](CC(C)C)NC(=O)[C@@H](NC(=O)[C@@H](NC(=O)CNC(=O)[C@H](CCCCN)NC(=O)[C@H](Cc1c[nH]cn1)NC(=O)[C@H](CCCCN)NC(=O)[C@H](Cc1c[nH]c2ccccc12)NC(=O)[C@H](C)NC(=O)[C@H](CC(C)C)NC(=O)[C@H](CO)NC(=O)[C@@H](NC(=O)[C@H](Cc1ccc(O)cc1)NC(=O)[C@H](CCCCN)NC(=O)[C@H](CCC(N)=O)NC(=O)CNC(=O)[C@H](CCCCN)NC(=O)[C@@H](NC(=O)[C@H](C)NC(=O)[C@H](CC(C)C)NC(=O)[C@H](Cc1ccccc1)NC(=O)[C@H](CCC(N)=O)NC(=O)[C@@H](NC(=O)[C@H](CC(C)C)NC(=O)[C@H](CCCCN)NC(=O)[C@H](CCSC)NC(=O)[C@H](Cc1ccccc1)NC(=O)[C@H](C)NC(=O)[C@H](C)NC(=O)[C@@H](N)CCSC)[C@@H](C)CC)[C@@H](C)O)C(C)C)[C@@H](C)O)[C@@H](C)CC)C(=O)N[C@@H](CC(N)=O)C(N)=O,human erythrocytes,hemolysis,,pH 7.2,baseline: water complete hemolysis,HD50,200 µg/mL
NC(=O)N/N=C/c1ccc(OCc2ccccc2)cc1,IMR-32,MTT,,"50 µg/mL, 24 h",baseline: untreated control,viability,83.7%
CC[C@H](C)[C@H](NC(=O)[C@H](C)NC(=O)[C@H](CCCCN)NC(=O)[C@H](CC(C)C)NC(=O)[C@@H](N)Cc1ccccc1)C(=O)N[C@@H](CCCCN)C(=O)N[C@@H](CCCCN)C(=O)N[C@@H](Cc1ccccc1)C(=O)NCC(=O)N[C@@H](CCCCN)C(=O)N[C@@H](CCC(=O)O)C(=O)N[C@@H](Cc1ccccc1)C(=O)N[C@@H](CCCCN)C(=O)N[C@@H](CCCCN)C(=O)N[C@H](C(=O)NCC(=O)N[C@@H](C)C(=O)N[C@@H](CCCCN)C(=O)N[C@@H](CC(C)C)C(=O)N[C@@H](CCCCN)C(=O)O)[C@@H](C)CC,HaCaT,MTT,,64 mg/L,baseline: untreated,cell growth,75.6% and 84.6% and 89.1% and 91% and 86%
CC[C@H](C)[C@H](NC(=O)[C@H](Cc1c[nH]c2ccccc12)NC(=O)[C@H](Cc1ccc(O)cc1)NC(=O)[C@H](CCCCN)NC(=O)[C@H](CC(C)C)NC(=O)[C@@H](N)CO)C(=O)N[C@@H](CCCNC(=N)N)C(=O)N[C@@H](Cc1ccc(O)cc1)C(=O)N[C@@H](CCCCN)C(=O)N[C@@H](CCCNC(=N)N)C(=O)N[C@@H](CCC(N)=O)C(=O)NCC(=O)N[C@@H](C)C(=O)N[C@@H](C)C(=O)N[C@@H](CCCNC(=N)N)C(=O)N[C@@H](Cc1ccccc1)C(N)=O,rat erythrocytes,,,"200 µM, 60 min, 37 °C",,hemolysis,5.7 ± 1.4%
CC(C)[C@H](NC(=O)CNC(=O)CNC(=O)[C@H](Cc1ccc(O)cc1)NC(=O)[C@H](CS)NC(=O)[C@@H](NC(=O)[C@H](Cc1c[nH]c2ccccc12)NC(=O)[C@H](Cc1ccccc1)NC(=O)[C@H](CS)NC(=O)[C@H](Cc1c[nH]c2ccccc12)NC(=O)[C@@H](N)CCCNC(=N)N)C(C)C)C(=O)N[C@@H](CS)C(=O)N[C@@H](Cc1ccc(O)cc1)C(=O)N[C@@H](CCCNC(=N)N)C(=O)N[C@@H](CCCNC(=N)N)C(=O)N[C@@H](CS)C(=O)N[C@@H](CCCNC(=N)N)C(=O)O,rat erythrocytes,haemolysis,,"1 h, 37 °C, 2% erythrocytes in PBS",,HC50,2.98 log10 µg/mL
CC[C@H](C)[C@H](NC(=O)[C@H](C)NC(=O)[C@H](CCCCN)NC(=O)[C@H](CCCCN)NC(=O)[C@@H](N)CCCNC(=N)N)C(=O)N[C@@H](CCCCN)C(=O)N[C@@H](CC(C)C)C(=O)N[C@H](C(=O)N[C@@H](CCCCN)C(=O)N[C@@H](CCCCN)C(=O)N[C@@H](CC(C)C)C(=O)N[C@H](C(=O)N[C@@H](CCCCN)C(=O)N[C@@H](CCCCN)C(=O)N[C@@H](CC(C)C)C(=O)N[C@@H](CCCCN)C(=O)N[C@@H](CCCCN)C(=O)N[C@@H](C)C(=O)N[C@@H](CC(C)C)C(=O)N[C@@H](CCCCN)C(=O)O)C(C)C)C(C)C,HaCaT,MTT,,64 mg/L,baseline: untreated,cell growth,86.4% and 96.4% and 82.1% and 85.9% and 79.3%
CC(=O)Oc1ccc(/C=C/C(=O)Oc2cc(C(F)(F)F)ccc2C(F)(F)F)cc1OC(C)=O,HaCaT,"cell growth or viability, MTT",,24 h,,CC50,150 µM
CC(C)C[C@@H](NC(=O)[C@H](NC(=O)[C@@H](CCCCN)NC(=O)[C@@H](CCCCN)NC(=O)[C@@H](CC(C)C)NC(=O)[C@@H](Cc1c[nH]c2ccccc12)NC(=O)[C@@H](CCCCN)NC(=O)[C@@H](Cc1c[nH]c2ccccc12)NC(=O)[C@@H](CC(C)C)NC(=O)[C@@H](CCCCN)NC(=O)[C@@H](CCCCN)NC(=O)[C@H](N)C(C)C)C(C)C)C(N)=O,sheep red blood cells,10% haemolysis,,"1 h, 37 °C",,minimum haemolytic concentration,75 µM
O=C1NC2(CC2)COc2ncc(F)cc2[C@H]2COCCN2c2ccn3ncc1c3n2,,,"Sprague-Dawley rat, male, thymus","oral, 5 mg/kg/day, 4 weeks",,organ weight,0.676 ± 0.139 g
CCN(CCCCOc1ccc(CCC(=O)N2CCC(Cc3ccccc3)CC2)cc1OC)Cc1ccccc1,Caco-2 monolayer,,,"20 µM, 120 min",,efflux ratio,1.45
CCCC[C@H](N)C(=O)N[C@H]1CSCc2ccc(cc2)-c2ccc(cc2)CSC[C@@H](C(=O)N[C@H](C(N)=O)[C@@H](C)O)NC(=O)[C@H](CCCCN)NC(=O)[C@H](CCCCN)NC(=O)[C@H](CCCCN)NC(=O)[C@H](Cc2ccc(O)cc2)NC(=O)[C@H](CC(N)=O)NC(=O)[C@H](CC(C)C)NC1=O,"HeLa, HaloTag-GFP-Mito, stably expressing","cytosolic penetration, chloroalkane penetration",,50% HaloTag blocking,,CP50,~2 µM
COc1cc(/C=C/c2ccc3c(c2)[C@@H](c2cc(O)cc(O)c2)[C@H](c2ccc(O)cc2)O3)cc(OC)c1,dog cells,,,1 (unit not given),,CC50,345 µM
CC[C@H](C)[C@H](N)C(=O)NCC(=O)NCC(=O)N[C@@H](CCCCN)C(=O)N[C@@H](CC(N)=O)C(=O)NCC(=O)NCC(=O)N[C@@H](Cc1c[nH]c2ccccc12)C(=O)N[C@@H](Cc1c[nH]c2ccccc12)C(=O)NCC(=O)N[C@@H](CCCCN)C(=O)N[C@H](C(=O)N[C@@H](CCCNC(=N)N)C(=O)N[C@@H](Cc1c[nH]c2ccccc12)C(=O)NCC(=O)N[C@@H](CC(C)C)C(=O)N[C@@H](CC(C)C)C(=O)N[C@@H](CO)C(=O)N[C@@H](CC(C)C)C(=O)N[C@H](C(=O)N[C@@H](CCCCN)C(=O)NCC(=O)N[C@H](C(=O)N[C@@H](C)C(=O)NCC(=O)N[C@@H](CCC(N)=O)C(=O)N[C@@H](CCCNC(=N)N)C(=O)N[C@@H](CC(C)C)C(=O)N[C@@H](CC(C)C)C(=O)O)[C@@H](C)CC)[C@@H](C)CC)C(C)C,HUVEC,"cytotoxicity, MTT",,"24 h, 37 °C",,IC50,8.33 µM
CC(=O)NCC(=O)N[C@@H](CCCNC(=N)N)C(=O)N[C@@H](CCCCN)C(=O)N[C@@H](CCCCN)C(=O)N[C@@H](CCCNC(=N)N)C(=O)N[C@@H](CCCNC(=N)N)C(=O)N[C@@H](CCC(N)=O)C(=O)N[C@@H](CCCNC(=N)N)C(=O)N[C@@H](CCCNC(=N)N)C(=O)N[C@@H](CCCNC(=N)N)C(=O)N1CCC[C@H]1C(=O)N[C@@H](CCC(N)=O)C(N)=O,HEK-293T,subcellular fractionation LC-MS,nuclear fraction,"20 µM, 24 h",,peptide amount,0.0126 nmol and 0.011 nmol and 0.0082 nmol
CNC(=O)CC[C@H](Cc1ccccc1)NC(=O)[C@@H](Cc1ccc(Cl)cc1Cl)NC(=O)[C@H](N)Cc1ccccc1[N+](=O)[O-],Huh-7-ACE2,CellTiter-Glo,,"3.125 µM, 48 h, unit not given",baseline: DMSO,viability,0.964 and 0.96 and 0.95
COc1cc(/C=C/C(=O)Oc2ccc(C(F)(F)F)c(C(F)(F)F)c2)ccc1OC(C)=O,HaCaT,MTT,,"24 h, 10% FBS",,subcytotoxic concentration,50 µM
CNC(=O)C[C@H](Cc1ccc(F)cc1)NC(=O)[C@@H](Cc1ccc(Cl)cc1Cl)NC(=O)[C@H](N)Cc1ccccc1[N+](=O)[O-],Huh-7-ACE2,CellTiter-Glo,,"0.0061 µM, 48 h, unit not given",baseline: DMSO,viability,0.934 and 0.904 and 0.962
CC(=O)NCC(=O)N[C@@H](Cc1ccccc1)C(=O)N[C@@H](Cc1ccccc1)C(=O)N[C@@H](Cc1ccc(O)cc1)C(=O)NCC(=O)N[C@@H](Cc1ccc(O)cc1)C(=O)NCC(=O)N[C@@H](CO)C(=O)N[C@@H](CO)C(=O)N[C@@H](CO)C(=O)N[C@@H](CCCNC(=N)N)C(=O)N[C@@H](CCCNC(=N)N)C(=O)N[C@@H](C)C(=O)N1CCC[C@H]1C(=O)N[C@@H](CCC(N)=O)C(=O)N[C@H](C(=O)O)[C@@H](C)O,L929,CCK-8,,"1 to 400 µM, 48 h",,cytotoxicity,not toxic

# For quick reference, copied from above:
Compound,target or system,assay,test system,setting,scale,endpoint,result
CC(=O)NCC(=O)N[C@@H](CCCNC(=N)N)C(=O)N[C@@H](CCCCN)C(=O)N[C@@H](CCCCN)C(=O)N[C@@H](CCCNC(=N)N)C(=O)N[C@@H](CCCNC(=N)N)C(=O)N[C@@H](CCC(N)=O)C(=O)N[C@@H](CCCNC(=N)N)C(=O)N[C@@H](CCCNC(=N)N)C(=O)N[C@@H](CCCNC(=N)N)C(=O)N1CCC[C@H]1C(=O)N[C@@H](CCC(N)=O)C(N)=O,HEK-293T,subcellular fractionation LC-MS,nuclear fraction,"20 µM, 24 h",,peptide amount,0.0126 nmol and 0.011 nmol and 0.0082 nmol
CNC(=O)CC[C@H](Cc1ccccc1)NC(=O)[C@@H](Cc1ccc(Cl)cc1Cl)NC(=O)[C@H](N)Cc1ccccc1[N+](=O)[O-],Huh-7-ACE2,CellTiter-Glo,,"3.125 µM, 48 h, unit not given",baseline: DMSO,viability,0.964 and 0.96 and 0.95
